Measured values pooled from the literature.
Numbered parts are unrelated; each lists some results of a single study. Positions count from the first letter of the parent shown.

Sample 1
Target: CCNB2, cyclin fold, Cln2 fusion (human)
Method: yeast growth competition, sequencing
Sample: yeast
Setting: weak parent motif
Reference: not given
Reading: higher = stronger binding
Starting sequence: CDC6 docking peptide (human); TLKGRRLVFDNQL
Under “normalised enrichment score”, `TLKGRRLVFDNQV [L13V]` is recorded as 0.00627.
For `TCKGRRLVFDNQL [L2C]`, “normalised enrichment score” read 0.0611.
`TLKGRRLGFDNQL [V8G]`: “normalised enrichment score” 0.32.
For `TLKGRRLVYDNQL [F9Y]`, “normalised enrichment score” read 0.551.
Under “normalised enrichment score”, `TLKGRRLVFDNQQ [L13Q]` is recorded as 0.0752.
Under “normalised enrichment score”, `TLVGRRLVFDNQL [K3V]` is recorded as 0.629.
For `TLKGRRLVRDNQL [F9R]`, “normalised enrichment score” read 0.335.
`TLKGRWLVFDNQL [R6W]` — result for “normalised enrichment score”: -0.908.
`PLKGRRLVFDNQL [T1P]` — result for “normalised enrichment score”: -0.0893.
Under “normalised enrichment score”, `TLKGRRLVFDNQY [L13Y]` is recorded as 0.865.

Sample 2
Target: Sal-like protein 4, full length isoform A (SALL4, Homo sapiens, UniProt Q9UJQ4, residues 1-1053)
Chain of UniProt Q9UJQ4 (whole entry, looked up): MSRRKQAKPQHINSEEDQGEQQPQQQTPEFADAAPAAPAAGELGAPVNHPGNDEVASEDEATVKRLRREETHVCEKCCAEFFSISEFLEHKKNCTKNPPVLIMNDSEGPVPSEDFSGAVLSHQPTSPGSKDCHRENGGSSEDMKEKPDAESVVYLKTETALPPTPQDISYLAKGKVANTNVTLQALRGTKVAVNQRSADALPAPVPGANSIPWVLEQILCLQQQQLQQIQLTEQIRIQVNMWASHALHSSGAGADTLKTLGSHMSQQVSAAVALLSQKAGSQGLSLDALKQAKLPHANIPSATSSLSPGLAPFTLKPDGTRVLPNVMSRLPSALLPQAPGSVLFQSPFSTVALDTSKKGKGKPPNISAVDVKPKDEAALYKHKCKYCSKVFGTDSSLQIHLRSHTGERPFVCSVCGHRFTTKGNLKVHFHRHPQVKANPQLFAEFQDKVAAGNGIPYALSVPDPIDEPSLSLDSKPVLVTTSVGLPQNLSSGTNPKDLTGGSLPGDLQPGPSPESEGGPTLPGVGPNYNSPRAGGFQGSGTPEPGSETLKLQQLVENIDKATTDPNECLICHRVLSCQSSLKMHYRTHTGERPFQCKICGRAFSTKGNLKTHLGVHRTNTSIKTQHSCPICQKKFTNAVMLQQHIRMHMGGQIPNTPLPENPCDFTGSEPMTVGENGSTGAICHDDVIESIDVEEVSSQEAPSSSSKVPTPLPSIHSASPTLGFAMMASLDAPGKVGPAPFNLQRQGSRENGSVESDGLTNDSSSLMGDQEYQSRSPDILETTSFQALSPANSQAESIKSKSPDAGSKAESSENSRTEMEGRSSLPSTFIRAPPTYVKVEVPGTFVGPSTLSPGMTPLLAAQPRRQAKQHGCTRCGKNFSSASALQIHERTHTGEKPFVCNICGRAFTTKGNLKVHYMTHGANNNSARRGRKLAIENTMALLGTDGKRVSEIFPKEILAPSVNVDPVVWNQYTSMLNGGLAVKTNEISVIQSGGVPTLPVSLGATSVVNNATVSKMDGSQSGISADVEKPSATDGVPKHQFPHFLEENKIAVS
Method: universal PBM
Molecule type: double-stranded DNA, one strand shown
Sample: in vitro
Concentration: 600 nM
Setting: 8-mer, flanks averaged, mean of replicates
Reading: higher = stronger binding
`AATATCCG` gave an E-score of 0.262.
`GTCCGCTA` gave an E-score of -0.122.
`TGACTGAA` gave an E-score of 0.0539.
With `GTCCTTGA` the E-score was 0.00771.
The E-score of `CTGAAACA` is reported as 0.159.
With `ACCGACTA` the E-score was -0.173.
For `AGTTTTGC`, the E-score was 0.274.
`GGATCACC` has an E-score of -0.277.
The E-score of `AATACTCG` is reported as 0.126.

Sample 3
Target: RNA binding protein fox-1 homolog 2, RRM domain, GST-SBP tag (RBFOX2, Homo sapiens, UniProt O43251-10, residues 100-194)
Method: RNA Bind-n-Seq
Molecule type: RNA
Sample: in vitro
Concentration: 365 nM
Setting: natural RNA segment, single round, ends assumed
Reference: no-protein control
Reading: higher = stronger binding
Construct (chain): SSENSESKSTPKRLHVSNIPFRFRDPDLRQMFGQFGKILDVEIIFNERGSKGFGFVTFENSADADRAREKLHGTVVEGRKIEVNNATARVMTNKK
`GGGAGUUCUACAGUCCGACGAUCUGGUGGGAGCCUCUGGCUGCAUCUGUGCAGCCACAUCCUUGUACAGAGGCAUAGGUUACCACCCCCACCCCGGCCCGGGAUACUGCCCCCGGCCCAGAUCCUGGCCGUCUUGGAAUUCUCGGGUGCCAA` — result for “RBNS enrichment (R)”: 0.165.
`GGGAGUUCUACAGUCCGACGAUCGUGACUCUGGUUGGCAAGGGUGAGCUGUGCUUGGCCAGGAAGGUGGCAUUAAAGGCUGUGCUCACGUGACAAGAGUGCCUUUGAGCUGUAAUGACCAGUGUUUAGAGUCCUGGAAUUCUCGGGUGCCAA`: “RBNS enrichment (R)” 0.881.
`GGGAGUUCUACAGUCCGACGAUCAGACCAAGAACCAUGAUCAUUGCCUGCUGAAUCGGCCAGGGCCUGGCCACUCUGUGAAUACAUGAUCUUGCAAUGUUGGGUUAUUCCAGCCAAAGACAUUUCAAGUGCCUUGGAAUUCUCGGGUGCCAA` — result for “RBNS enrichment (R)”: 0.488.
`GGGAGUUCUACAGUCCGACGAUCUGUGCCUUAAGAGACUACAGAGUCAAAGCUCAUUUUUAAAGGAGUAGGACAAAGUUGUCACAGGUUUUUGUUGUUGUUUUUAUUGCCCCCAAAAUUACAUGUUAAUUUCCUGGAAUUCUCGGGUGCCAA`: “RBNS enrichment (R)” 0.666.
For `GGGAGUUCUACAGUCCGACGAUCCUGGAUCUCUGAUUAUCUUGUGAUCAUAGCACCUGCUGUCGGCACACUCCCGUGAGUCCUGUGGUCAGGGUUUCAGGAUAGGAGGUGGAGGUUUGGGUUAACGUGGGAAAUGGAAUUCUCGGGUGCCAA`, “RBNS enrichment (R)” read 0.525.
For `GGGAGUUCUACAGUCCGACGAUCGGCCAUGCUCUGUUCCCAGCAGCCGCGCAGGUUUCCCCACUGGCUGCAAUGGCCCUACCAAAAGCCAUGUUGCAUAUCCGUUGUAAGCACGUGCCCUGUGCCCUGUCCCCUGGAAUUCUCGGGUGCCAA`, “RBNS enrichment (R)” read 0.461.
Under “RBNS enrichment (R)”, `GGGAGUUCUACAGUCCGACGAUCCAAGCCAUUCCUAUCAAAAUAUUAUUUAUUUCAGUCAAUUUUACCAAAUAACAAAGACAAUAUAUUUUCGUUUUUUUUUAUUAUGAGCAUAUGAUUUUUUGACAGGCUGUUGGAAUUCUCGGGUGCCAA` is recorded as 0.518.

Further values, each from its own experiment
For `PhoQ, residues 284 288 289 292 302 303 GANMMA`, the fold induction was 0.769 (PhoP, residues 12 14 15 18 19 NIMAP (Escherichia coli, UniProt P23836); Sort-seq, measured: YFP reporter; E. coli; PhoQ-PhoP variant library, added: 10 µM Mg2+; reference: high Mg2+ state, higher = stronger signaling).

Repeated from above (sample 1):
Under “normalised enrichment score”, `TLVGRRLVFDNQL [K3V]` is recorded as 0.629.
For `TLKGRRLVRDNQL [F9R]`, “normalised enrichment score” read 0.335.
`TLKGRWLVFDNQL [R6W]` — result for “normalised enrichment score”: -0.908.
`PLKGRRLVFDNQL [T1P]` — result for “normalised enrichment score”: -0.0893.
Under “normalised enrichment score”, `TLKGRRLVFDNQY [L13Y]` is recorded as 0.865.
